{"data": "Assay results collected from several papers", "note": "Each numbered part is a random draw from the data of one study; scales do not carry over between parts."}
{"data": "Set 1", "target": "Histone acetyltransferase KAT6A, winged helix 1, GST fusion (KAT6A, Homo sapiens, UniProt Q92794, residues 1-85)", "technique": "protein binding microarray", "molecule type": "double-stranded DNA, one strand shown", "matrix": "in vitro", "tested at": "not given", "notes": "8-mer, flanks averaged, mean of 2 arrays, mostly near background", "relative to": "not given", "reading": "higher = stronger binding", "Target sequence (chain)": "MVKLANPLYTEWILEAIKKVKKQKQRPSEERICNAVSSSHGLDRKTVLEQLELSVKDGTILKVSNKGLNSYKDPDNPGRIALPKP"}
{"Sequence": "TATAAGAA", "E-score": -0.0495}
{"Sequence": "ATTCACGA", "E-score": -0.305}
{"Sequence": "GGCCGGAC", "E-score": 0.235}
{"Sequence": "CCACAGAC", "E-score": -0.223}
{"Sequence": "ATGGTGCG", "E-score": 0.0428}
{"Sequence": "AAGAGGGA", "E-score": -0.195}
{"data": "Set 2", "target": "Interferon regulatory factor 5, full length, phosphomimetic (IRF5, Homo sapiens, UniProt Q13568-2, residues 1-514, K96S/S451D/S453D/S456D/S462D)", "technique": "protein-binding microarray", "molecule type": "double-stranded DNA, one strand shown", "matrix": "in vitro", "tested at": "250 nM", "notes": "60-bp whole probe", "together with": "salmon DNA 0.4 mg/ml", "relative to": "random background probes", "reading": "higher = stronger binding", "constant ends, left off below": "GCCTAGCAC … GTCTTGATTCGCTTGACGCTGCTG"}
{"Sequence": "TTAGGTATCGGTCTCGGGTAGTGCTAG", "log fluorescence [z-score]": 6.19}
{"Sequence": "GACCGTTTCGGGTATCGGGACGTGCTA", "log fluorescence [z-score]": 7.43}
{"Sequence": "GACGGGATCCTTATCCTGACGTGCTAG", "log fluorescence [z-score]": -0.265}
{"Sequence": "GGGAATTTAGAAAATGGAAATGTGCTA", "log fluorescence [z-score]": 0.504}
{"Sequence": "TGAGGACTGGGGACTGGGTTAGTGCTA", "log fluorescence [z-score]": -0.6}
{"data": "Set 3", "target": "Sal-like protein 4, full length isoform A (SALL4, Homo sapiens, UniProt Q9UJQ4, residues 1-1053)", "technique": "universal PBM", "molecule type": "double-stranded DNA, one strand shown", "matrix": "in vitro", "tested at": "600 nM", "notes": "8-mer, flanks averaged, mean of replicates", "reading": "higher = stronger binding", "sequence of UniProt Q9UJQ4 (whole entry, looked up)": "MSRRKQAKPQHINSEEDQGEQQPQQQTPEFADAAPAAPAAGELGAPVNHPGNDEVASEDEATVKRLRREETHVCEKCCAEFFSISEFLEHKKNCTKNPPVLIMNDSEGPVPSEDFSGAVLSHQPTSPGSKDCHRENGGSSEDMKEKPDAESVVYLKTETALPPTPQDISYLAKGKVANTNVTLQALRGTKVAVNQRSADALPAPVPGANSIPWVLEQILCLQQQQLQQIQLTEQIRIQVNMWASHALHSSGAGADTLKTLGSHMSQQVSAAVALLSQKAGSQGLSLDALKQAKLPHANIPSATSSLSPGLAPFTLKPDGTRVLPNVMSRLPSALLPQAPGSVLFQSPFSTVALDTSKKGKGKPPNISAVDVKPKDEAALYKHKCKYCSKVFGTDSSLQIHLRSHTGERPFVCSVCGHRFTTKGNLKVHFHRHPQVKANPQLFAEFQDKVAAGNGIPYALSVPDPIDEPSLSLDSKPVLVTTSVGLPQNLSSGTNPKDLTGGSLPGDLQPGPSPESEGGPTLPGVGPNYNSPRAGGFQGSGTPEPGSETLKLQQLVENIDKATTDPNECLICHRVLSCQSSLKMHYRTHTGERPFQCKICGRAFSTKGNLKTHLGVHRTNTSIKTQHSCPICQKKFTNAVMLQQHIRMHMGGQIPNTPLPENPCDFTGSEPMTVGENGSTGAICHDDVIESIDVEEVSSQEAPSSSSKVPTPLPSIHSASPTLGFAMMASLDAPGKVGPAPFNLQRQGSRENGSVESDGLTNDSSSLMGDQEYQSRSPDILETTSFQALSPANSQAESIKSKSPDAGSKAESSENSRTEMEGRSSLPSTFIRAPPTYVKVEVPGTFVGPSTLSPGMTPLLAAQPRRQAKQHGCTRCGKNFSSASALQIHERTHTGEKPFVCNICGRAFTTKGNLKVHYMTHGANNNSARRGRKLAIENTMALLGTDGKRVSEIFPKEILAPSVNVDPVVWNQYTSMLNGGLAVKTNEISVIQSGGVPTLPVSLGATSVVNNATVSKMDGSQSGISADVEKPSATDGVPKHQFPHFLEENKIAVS"}
{"Sequence": "CCACACTA", "E-score": 0.0868}
{"Sequence": "TCTATCCA", "E-score": 0.075}
{"Sequence": "GTCGGACA", "E-score": -0.124}
{"Sequence": "ACTTTGGC", "E-score": -0.125}
{"Sequence": "ACTTGTAA", "E-score": 0.25}
{"Sequence": "TGACGAAA", "E-score": 0.246}
{"Sequence": "GGCAGACC", "E-score": -0.348}
{"data": "Single results of other studies"}
{"Substance": "PhoQ, residues 284 288 289 292 302 303 SSTLLI", "target": "PhoP, residues 12 14 15 18 19 LHATL (Escherichia coli, UniProt P23836)", "assay": "Sort-seq, item: YFP reporter", "test system": "E. coli", "conditions": "PhoQ-PhoP variant library, together with: 10 µM Mg2+", "scale": "relative to: high Mg2+ state, higher = stronger signaling", "measurement": "fold induction", "value": 2.22}
{"note": "Repeated from above (set 1):"}
{"Sequence": "CCACAGAC", "E-score": -0.223}
{"Sequence": "ATGGTGCG", "E-score": 0.0428}
{"Sequence": "AAGAGGGA", "E-score": -0.195}
